Measurements of several laboratories.
Numbered parts are unrelated; each lists some results of a single study.

Study 1 — method: protein binding microarray; form: double-stranded DNA, one strand shown; matrix: in vitro; concentration: not given; baseline: not given; direction: higher = stronger binding; quantity: E-score
Target: Histone acetyltransferase KAT6A, both winged helices, GST fusion (KAT6A, Homo sapiens, UniProt Q92794, residues 1-181)
Setting: 8-mer, flanks averaged, mean of 2 arrays, mostly near background
Construct (chain): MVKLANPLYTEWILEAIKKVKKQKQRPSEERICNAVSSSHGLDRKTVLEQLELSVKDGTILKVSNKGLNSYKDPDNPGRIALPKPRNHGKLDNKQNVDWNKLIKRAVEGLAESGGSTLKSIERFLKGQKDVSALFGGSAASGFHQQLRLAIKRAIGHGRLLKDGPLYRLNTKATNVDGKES
TCTGCTAA: -0.189
ATGATACC: 0.00421
CTATTTTA: 0.0164
AAAGGATA: -0.0729
CGTGAATA: 0.0197
GCGGTGCC: 0.204
CCCTCTAG: -0.256
ATATGAAT: -0.0684
AGACTGTA: -0.0656
ATTACGCA: 0.147
TGCTGCCA: -0.136
AAATGGAG: -0.131
GGAATATA: -0.01
ATCGTCAT: 7e-05
ATTGGCAA: -0.196
ATGTCTAC: -0.0528
TGATTACA: -0.112
CGTCCCAA: -0.11
GATCGTAA: -0.0422
ATCCAGAC: -0.0602
CCGCCGAA: 0.293

Study 2 — method: universal PBM; form: double-stranded DNA, one strand shown; matrix: in vitro; concentration: 600 nM; direction: higher = stronger binding; quantity: E-score
Target: Sal-like protein 4, full length isoform A (SALL4, Homo sapiens, UniProt Q9UJQ4, residues 1-1053)
Sequence of UniProt Q9UJQ4 (whole entry, looked up): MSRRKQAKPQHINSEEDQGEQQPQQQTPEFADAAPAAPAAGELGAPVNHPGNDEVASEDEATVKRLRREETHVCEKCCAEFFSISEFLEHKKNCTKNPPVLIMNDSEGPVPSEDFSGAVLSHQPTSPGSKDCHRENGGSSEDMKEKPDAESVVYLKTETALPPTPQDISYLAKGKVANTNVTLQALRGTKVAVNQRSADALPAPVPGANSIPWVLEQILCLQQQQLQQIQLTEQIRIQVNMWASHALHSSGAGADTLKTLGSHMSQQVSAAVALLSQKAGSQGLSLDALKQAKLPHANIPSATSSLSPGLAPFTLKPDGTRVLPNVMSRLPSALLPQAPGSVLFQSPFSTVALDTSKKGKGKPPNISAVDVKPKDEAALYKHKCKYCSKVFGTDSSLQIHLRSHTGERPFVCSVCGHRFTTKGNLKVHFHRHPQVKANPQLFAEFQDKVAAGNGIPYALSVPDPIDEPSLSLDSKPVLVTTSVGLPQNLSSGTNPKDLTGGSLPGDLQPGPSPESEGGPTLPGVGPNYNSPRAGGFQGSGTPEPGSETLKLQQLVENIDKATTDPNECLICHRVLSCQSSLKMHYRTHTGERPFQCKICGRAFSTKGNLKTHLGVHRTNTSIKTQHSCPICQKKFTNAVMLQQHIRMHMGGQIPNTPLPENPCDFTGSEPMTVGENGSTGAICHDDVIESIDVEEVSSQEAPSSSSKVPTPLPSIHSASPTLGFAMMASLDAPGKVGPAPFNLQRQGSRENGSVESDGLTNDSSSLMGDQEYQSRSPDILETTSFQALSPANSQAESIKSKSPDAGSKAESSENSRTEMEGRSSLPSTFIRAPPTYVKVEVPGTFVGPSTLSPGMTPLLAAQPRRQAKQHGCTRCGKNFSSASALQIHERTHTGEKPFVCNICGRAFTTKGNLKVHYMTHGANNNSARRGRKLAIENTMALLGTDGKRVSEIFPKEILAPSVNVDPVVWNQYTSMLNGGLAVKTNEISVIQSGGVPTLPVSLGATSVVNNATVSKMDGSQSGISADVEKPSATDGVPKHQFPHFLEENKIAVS
Setting: 8-mer, flanks averaged, mean of replicates
GATCTTAC: 0.0304
CCCCACCA: -0.218
ACCTTTCC: 0.0619
AACGTCAT: 0.232
AGACTTGG: -0.107
CCCACGAC: -0.332
CAAAATTG: 0.199
AACTGAAC: -0.062
ACGTGTGA: 0.0517
ATCTCGAC: 0.0683
AATAGAAA: 0.201
ACACTAGA: 0.158
CTCACCAC: -0.167
GCGCTCCC: -0.276
AGAGGAAC: -0.0763
GCCTCTCA: -0.273
CTGTACTA: 0.0257
GTGCTCAA: 0.03
ACCGCGAC: -0.201
CCCAGAAC: -0.126
CAGCCTTA: 0.00766
AGGACTAA: 0.0532
ATGCACTA: 0.161
ATATCTAG: 0.265
CGTGGTGC: -0.257

Study 3 — method: RNA Bind-n-Seq; form: RNA; matrix: in vitro; concentration: not given; baseline: input RNA pool; direction: higher = stronger binding; quantity: bound/input enrichment
Target: RING finger protein unkempt homolog, zinc fingers 1-6, GST-SBP tag (UNK, Homo sapiens, UniProt Q9C0B0, residues 30-357)
Setting: RNA with constant flanks, human and mouse sites, ends assumed
All sequences stand within: GGGAGUUCUACAGUCCGACGAUC … CAACAGAGGAUUGAGCAUCA
Residues (chain): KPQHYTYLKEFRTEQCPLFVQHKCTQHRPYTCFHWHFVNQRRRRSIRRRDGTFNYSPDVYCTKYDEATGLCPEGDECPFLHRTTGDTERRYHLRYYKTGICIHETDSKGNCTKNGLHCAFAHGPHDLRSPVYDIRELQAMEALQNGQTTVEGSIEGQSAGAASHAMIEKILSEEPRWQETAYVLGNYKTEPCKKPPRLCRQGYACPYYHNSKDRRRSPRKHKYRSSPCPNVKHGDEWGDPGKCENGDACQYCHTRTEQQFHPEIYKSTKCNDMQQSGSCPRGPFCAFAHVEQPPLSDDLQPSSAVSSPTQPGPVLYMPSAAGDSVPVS
UGAGCAUCCCCAAAGUGUAACGUAGAAGCCUUGCAUCCUUUUCUUGUGUAAAGUAUUUAUUUUUGUCAAAUUGCAGGAAACAUCAGGCACCACAGUGCAUGAAAAAUCUUUCACAGCUAG: 0.476 ratio
AAUAGACUGGUCAGCUCUGGAAUCUACAAAGCAGCGUUUCCUCUGCACGACUGCAGAUUCAACUAUGAGUCGGAGGACAUCAGUUGUCCUAGCGAGCGUUACCUCCUGUACAGAGAAUGG: 0.307 ratio
GUUUGAGCCUAGCAAUUGCAGAACUCAUAAAAUUGCUUGUGAAAUUACACACCAUAUUACUAGCAUAUACAUUGCAGUGCUCCAAUCAUGCUAACAGAUAAUAGAUUUUUCUUUAAGAAU: 0.646 ratio
AGCAUUUGUCUCGAUAUUCUAAGAUCACAGUGGUCGCCUGCUUUAACAAUUUCUAAAGUUCUUUUAUCCAUUUGUUCACUGCUAUGUGAUCCAAACCCAGAUGACCCCCUAGUGCCAGAG: 0.286 ratio
GCGAACAGCCAUUAGGAAGAAUGCUGAGUGCUCCGGCGUGAGUCGUGACUUCUGAUGACCUAGCAAAUAAUGCCACACACUGCAAUACUGUGAAGACACUCGCAAGGAUACAGCAGUGAU: 0.361 ratio
CCUGCAGUAGGAAGUUUUGGGGUUUUUUGUUUUUGUUUGGUUUUGGUUUUGUUUUUCUUAAAUAGUCUCUUAUGGGUAGCUGGAUUCUCUGCCAUUUGUAAUUUUUCCUCUGAUUCCAAU: 8.79 ratio
GAAUAUGUGGCAAUCAAAACCAAGAAACGAAUCUUGCUGUACACCAUGAACCCCAACAAAUUUAGAGCUUGCCAGUUUCUGAUCAAGUUUCAUGAAAGGAGGAAUGACAAGAUUAUUGUC: 0.282 ratio
UCUCAGUUAUUAAAGCUAAUUGGUUUUUUUGUUUGGAGAGUGACAUUUUAAUUGAUUUAAUUAUUGUCAAUAUUAAGUUGAGAGUUUUGUUUGGGUAUUGACAUUCUUCAUUUCAUGUUG: 0.598 ratio
AACAAUCCAUAUGCGACCACAGAAGGAAAUUCAACAGAACUUAGCAUAAAUGCUGAAGUGUAUUCAUUGCCUUCAAGAAAGCUGGUGGCUCUACAGUUAAGAUCCAUUUUUAUUAAGUAU: 0.266 ratio
GAAAAGAGUGGAAAACAAGGCUCUCCAGACCAAGUAAGUCCAGUUUCUGAAAUGACUUCUACUAGUCUUUACCAAGACAAACAGGAAGGGAAAAGCACAGACUUUGCACCAAUAAAAGAA: 0.45 ratio
CGGUCAGGGCGCCCCCUCCGCCCGCCUCCUGCUUCCUCCUCCGCUGCCUGCCGCCGCCGCCUCCACCAUUGUAUAAUGCUCGGGGCGCGCAGGCAGAGAACGGCGGAGUCUUAGCUUCAG: 0.0933 ratio

Study 4 — method: RNA Bind-n-Seq; form: RNA; matrix: in vitro; concentration: 365 nM; baseline: no-protein control; direction: higher = stronger binding; quantity: RBNS enrichment (R)
Target: RNA binding protein fox-1 homolog 2, RRM domain, GST-SBP tag (RBFOX2, Homo sapiens, UniProt O43251-10, residues 100-194)
Setting: natural RNA segment, single round, ends assumed
All sequences stand within: GGGAGUUCUACAGUCCGACGAUC … UGGAAUUCUCGGGUGCCAA
Residues (chain): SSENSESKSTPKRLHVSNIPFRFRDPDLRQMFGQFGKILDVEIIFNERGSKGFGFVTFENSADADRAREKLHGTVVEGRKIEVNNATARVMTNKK
UGGCUUCCCCAGGGAAGGAAAAAUGUGCUUCCUCCCUUUUUUCAAGGGUUCAUCUUUGCUUUAAUUUUGGCAAAAUGUUAAGCAUUUAUUUUGAGCUAAAAAUAAAAGUU: 0.406
GAAGUGAGACCACUGUUGAAGUACCACAAAAGUUUGAAUGAACGAGUGAGUGUUCACUCUUUUGUCUGUGGAGUCUGCUGUGUGGCAGGAUCCCAGCCCUAGAGCUGCAG: 0.5
UUUCUACCAGACAGCGAAGCACCCCUUUGCUUCCCAUGCGACUUCAAGAAGGUUUCCUAUACUAUACAUAUAUAUACGUUCUGGUUGGCAAGCCCUGCUGAUCAGAGAAA: 0.278
UGGCCUCUCUCGCUGCCAGGGCCCUUGUCAGAGCAGCCAGGCUGGACAGACGGCCUCCCUCCUCUCCAUCUGACCGGCACCUGCUGCUUCGGGGCUUAGGCCACCGCUCC: 0.362
UGAACUUUUUGUAGGGGACGAGAAAGAUCAUUGAAAUUCUGAGAAAACUUCUUUUAAACCUCACCUUUGUGGGGUUUUUGGAGAAGGUUAUCAAAAAUUUCAUGGAAGGA: 1
CAAAGCCAAGUCCACCAGAGUGGCUGCAGGCCAGGCCUGGAGUCCCCGUGGGUCAAGCAUUUGUCUUGACUUGCUUUCCUCCCGGGUCUCCAGCCUCCGACCCCUCGCCC: 0.241
UGCUGACUUUAAAAGGAUUAAUCUGGGCAGACAUUAUGUAAAAGAAAGGUUGCGUUUAAUAUAUUUUUUGAACUUUGUAGGACAAAACAUAGCUGGUUAACCUUGAAGUG: 0.461
CAUGUGUAUCCCUUUAAGUUGUUUCUCCUUGACACGCUCCACAAUGGCAAAGAUACCAAGUCAUACCUACUCAACAGAUGGCAUGGGACAUAUGAAGAAAUGGAGACAUU: 0.606
UGAAAGCAGUGUGAUACCCAAGUCAUAGGUGCUUCUCGUAUGUGAACAGGUGUCAUUCUACAGAUCUGUUAUGUGUUUUCCUGUUGACUCUUAAGAGUCCCUGCAUGUAA: 22.9
AGUGUAGGUAAUGUAAAACAGUAAGCUCAAAUUGCAGAAGCCAGUAUCCUACAGAAAUUUAAGUAGCUACUGCUUCUCCUGAAAGCCCAAGUUGAAAAUGGGACCACAGG: 0.616
AGUGCUGAGGACAGUGUUGACAACUAACUCGUUUUCCUAGAUGGAAACGGAGACAUUGACCCCUCCCUCCAUGUGGUAAACCACUCCAGAAUGGCCACCAGGCUUCCCAG: 0.19
AGGACUCGGACGUGUUCGAGGAGGACACUCACCUGUGAGCGCCGGGCCACGGGCGCGAGACUGCCCGACGCCACGGCCCCGCGCCCCUCCCGGUCCUCCACGCGGACCAC: 0.431

Study 5 — method: RNA Bind-n-Seq; form: RNA; matrix: in vitro; concentration: 200 nM; setting: whole 134-nt RNA, ends assumed; together with: 150 mM LiCl; baseline: input library; direction: higher = stronger binding; quantity: log2 enrichment; library: 7-deaza-guanosine replaces G
Target: Ras GTPase-activating protein-binding protein 1, full length (G3BP1, Homo sapiens, UniProt Q13283)
Sequence of UniProt Q13283 (whole entry, looked up): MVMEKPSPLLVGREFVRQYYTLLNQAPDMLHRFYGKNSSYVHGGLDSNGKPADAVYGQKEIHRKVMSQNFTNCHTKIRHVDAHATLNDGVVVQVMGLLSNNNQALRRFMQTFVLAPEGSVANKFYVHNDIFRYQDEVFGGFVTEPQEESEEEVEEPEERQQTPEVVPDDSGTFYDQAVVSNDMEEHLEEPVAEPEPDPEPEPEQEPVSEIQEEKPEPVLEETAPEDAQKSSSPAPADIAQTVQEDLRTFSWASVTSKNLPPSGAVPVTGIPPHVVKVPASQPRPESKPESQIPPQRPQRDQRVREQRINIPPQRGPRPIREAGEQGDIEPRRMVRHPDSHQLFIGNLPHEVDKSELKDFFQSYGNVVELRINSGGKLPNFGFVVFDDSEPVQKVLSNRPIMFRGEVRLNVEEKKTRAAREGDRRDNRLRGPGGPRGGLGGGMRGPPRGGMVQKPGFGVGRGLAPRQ
All sequences stand within: GGGAGUUCUACAGUCCGACGAUC … UGGAAUUCUCGGGUGUCAAGG
AGUCCUGUGCUACACAUCGUAUGUACCGAAUCGGGGUUUUUGGUUUUUGGUUUUUGGAAAGUAUUAUGUUACGCCGUUCGGAUCUGCACU: -1.15
AAGUCCUGUGCUACACAUCGUAUGUACCGAAUCGGUUUUUUUGGUUUUUUUGGUGGAAAGUAUUAUGUUACGCCGUUCGGAUCUGCACUU: -1.68
GUCCUGUGCUACACAUCGUAUGUACCGAAUCGGGGAAAAAGGGGAGGGGUUUUUGGGGAAAGUAUUAUGUUACGCCGUUCGGAUCUGCAC: 0.178
GUCCUGUGCUACACAUCGUAUGUACCGAAUCGGUUUUUUGGUUUUUUGGUUUUUUGGGAAAGUAUUAUGUUACGCCGUUCGGAUCUGCAC: -1.09
CAAGUCCUGUGCUACACAUCGUAUGUACCGAAUCGGGAAAAAGGGUUUGGGUGGGAAAGUAUUAUGUUACGCCGUUCGGAUCUGCACUUC: -0.54
ACCAUGCAGGUGGGCAUCUUUGGGAAGUGGGGCAAGGGGGGGAUAGGGAGGGGGGUAACACUUUGGGAACAGGUGGUCCCAGGUCGAAAC: 0.152
GUCCUGUGCUACACAUCGUAUGUACCGAAUCGGGGUUUUUGGGGUUUGGGGAAAGGGGAAAGUAUUAUGUUACGCCGUUCGGAUCUGCAC: -0.737
UCCUCAAGUCCUGUGCUACACAUCGUAUGUACCGAAUCGGAGGUGGAAAGGAAAGUAUUAUGUUACGCCGUUCGGAUCUGCACUUCCAGC: -0.605
UCCUGUGCUACACAUCGUAUGUACCGAAUCAAAGUGUGUGUGUGAAAUGUGUGUGUGAAAAAAGUAUUAUGUUACGCCGUUCGGAUCUGC: -1.3
CUGUGCUACACAUCGUAUGUACCGAAUCGGGGAAAAAGGGGAAAAAAAGGGGAAAAAGGGGAAAGUAUUAUGUUACGCCGUUCGGAUCUG: 0.609
UACUAUGAAGCCUUGUGCAAAUCCCUCGACUGGCAGAUAGACGUGGACCUACUCAAUAAAAUGAAGAAGGCAAAUGAAGAUGAGUUGAAG: -0.913

For quick reference, copied from above (study 3):
AAUAGACUGGUCAGCUCUGGAAUCUACAAAGCAGCGUUUCCUCUGCACGACUGCAGAUUCAACUAUGAGUCGGAGGACAUCAGUUGUCCUAGCGAGCGUUACCUCCUGUACAGAGAAUGG: 0.307 ratio
AACAAUCCAUAUGCGACCACAGAAGGAAAUUCAACAGAACUUAGCAUAAAUGCUGAAGUGUAUUCAUUGCCUUCAAGAAAGCUGGUGGCUCUACAGUUAAGAUCCAUUUUUAUUAAGUAU: 0.266 ratio
AGCAUUUGUCUCGAUAUUCUAAGAUCACAGUGGUCGCCUGCUUUAACAAUUUCUAAAGUUCUUUUAUCCAUUUGUUCACUGCUAUGUGAUCCAAACCCAGAUGACCCCCUAGUGCCAGAG: 0.286 ratio
UGAGCAUCCCCAAAGUGUAACGUAGAAGCCUUGCAUCCUUUUCUUGUGUAAAGUAUUUAUUUUUGUCAAAUUGCAGGAAACAUCAGGCACCACAGUGCAUGAAAAAUCUUUCACAGCUAG: 0.476 ratio
